Measurements from different studies.
Every numbered part comes from another study and shows a few of its results, in no order.

Sample 1
Target: RNA binding protein fox-1 homolog 2, RRM domain, GST-SBP tag (RBFOX2, Homo sapiens, UniProt O43251-10, residues 100-194)
Method: RNA Bind-n-Seq
Molecule type: RNA
Matrix: in vitro
Tested at: 365 nM
Notes: natural RNA segment, single round, ends assumed
Reference: no-protein control
Direction: higher = stronger binding
Constant ends, left off below: GGGAGUUCUACAGUCCGACGAUC … UGGAAUUCUCGGGUGCCAA
Residues (chain): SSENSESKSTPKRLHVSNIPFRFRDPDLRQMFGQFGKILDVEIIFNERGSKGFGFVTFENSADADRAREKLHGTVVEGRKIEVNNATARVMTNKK
| Sequence | RBNS enrichment (R) |
| --- | --- |
| CUGCUUCCAUGUAGAGAAGUGGGACAGCAGGCCCUCCUUGGAGUUUCUGCACAGGUUUAGGUGAGUAGACCACAUGCCCUAUGAGGCAAGCACCGAGCAAACCCUAGGGU | 0.255 |
| UUGAUCGUUUGCUGCCAGCCCAGAAGGAUGAAGGAAAGAAGCACCUCACAGCUCCUUUCUAGGUCCUUCUUUCCUCAUUGGAAGCAAAGACCUAGCCAACAACAGCACCU | 0.273 |
| CCCAGUGAAGAGCUCAGGCCCUCAGGAAGUGUCUGCUGAAUGGAAUGGCCCAGCAUUAGCCCAGUAUUGGAAAAGACACCAGCCCAGGGGCCCUGACUCGUCACACUUCC | 0.81 |
| CUGUGUUUGCUCCCAAAUCUGCUGAUGGUGGCUCAUUUCUAUCCUGUUUUCCCUUUGGUCCCAGGCCCUGGGGGAAAGGAAGGAAGUGCAUGCUUGGGGACUGGUCCCAC | 2.2 |
| UAGAUUUCAGAUGACUAUGCAGAGGCCUUGGGGACCCCUCCCCAGCUCUGGGCAGGGCCUGGGGAUCCCACAUUCCAUGCCCAGGCUUGGGGGAGGGGGACCCAGACUUG | 0.279 |
| GCCCCUAGGUGGGCAGAGGCAGACCCUCCCCAGAGCUCCUUAGGAAGAAGACAGACUGGUUCAUUGAAUGCCGCCUUAUUUAUUUCUGGUGAGGAUGCAUGCGUGGGGCU | 5.45 |
| GGGCUUUGAGUUUCCAGAAAGAGAUGGAAUAAUGGAGACUUUCUUUCCCUGGGGACCAGUGUCAGUGGCAGAGCCAGGGACACCCAUGCACAAGGAGGCAUGCUUGCCCU | 1.03 |
| AUAGGAUGCCAUCAGCCAUCGAGGGGGCGUCUUGCCUCUGCCCAUCGCUCCAGGAGUCUACGCUGUCGUGGAAAUUGUGCCCACCCCCAUCUGUGUGUUGUAGCCACUCA | 0.265 |

Sample 2
Organism: Vesicular stomatitis virus
Effect on: pseudovirus infection
Method: FDA-approved drug library screen
Tested at: concentration not given
Notes: SARS-CoV-2 spike pseudotype
Reference: vehicle
| Compound | GFP-positive cells [%] |
| --- | --- |
| COCCCOc1ccnc(CSc2nc3ccccc3[nH]2)c1C | 96.9 |
| FC(F)(F)C(Cl)Br (centres unmarked) | 90.5 |
| NC[C@H]1CC[C@H](C(=O)O)CC1 | 95.7 |

Sample 3
Target: Replicase polyprotein 1ab, main protease (rep, Severe acute respiratory syndrome coronavirus 2, UniProt P0DTD1)
Effect on: enzyme activity
Action: inhibitor
Notes: without DTT
| SMILES | IC50 [µM] |
| --- | --- |
| CN1CC[C@@]2(C)c3cc(O)ccc3N(C)[C@@H]12 | 2 |
| CC(Cc1ccc(O)c(O)c1)C(C)Cc1ccc(O)c(O)c1 (centres unmarked) | > 20 |
| O=C1OC2(c3ccccc31)c1cc(Br)c(O)c(Br)c1Oc1c2cc(Br)c(O)c1Br | 4.2 |

Sample 4
Target: RING finger protein unkempt homolog, zinc fingers 1-6, GST-SBP tag (UNK, Homo sapiens, UniProt Q9C0B0, residues 30-357)
UniProt Q9C0B0, sequence (30-357, looked up): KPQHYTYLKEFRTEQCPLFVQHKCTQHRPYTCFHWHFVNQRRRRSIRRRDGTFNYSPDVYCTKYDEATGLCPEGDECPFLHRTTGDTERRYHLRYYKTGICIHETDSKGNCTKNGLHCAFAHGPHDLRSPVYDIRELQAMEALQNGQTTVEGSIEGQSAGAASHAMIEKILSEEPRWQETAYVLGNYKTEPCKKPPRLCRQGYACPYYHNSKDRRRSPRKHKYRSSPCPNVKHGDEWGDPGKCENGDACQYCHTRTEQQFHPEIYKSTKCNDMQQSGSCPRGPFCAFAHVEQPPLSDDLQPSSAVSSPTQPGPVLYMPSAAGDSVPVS
Method: RNA Bind-n-Seq
Molecule type: RNA
Matrix: in vitro
Tested at: not given
Notes: RNA with constant flanks, human and mouse sites, ends assumed
Reference: input RNA pool
Direction: higher = stronger binding
Constant ends, left off below: GGGAGUUCUACAGUCCGACGAUC … CAACAGAGGAUUGAGCAUCA
| Sequence | bound/input enrichment [ratio] |
| --- | --- |
| CGGGGGCGGGGUGGGGGCAGCCCUUUCCCAGGCGGUAGCGGGGGCGGCGUCGCUGUUGCCCUUUUAAGCCGCGGGGCCGCCGCCUCCUGCCGCUGGAGUCGGUUACAAAGGAAGCGCCAC | 0.234 |
| AGCACCUGUCCACAUGGUGAGCCCGGUGCUCCCCAACCACCCCCGCCAUGAGGACCAAUGACUAGCCAGUGUAGAAUAAGUUUGGCCAGAUAAGGAGAUGGCACUGCCAAGUGAUACAUG | 0.491 |
| CAACCAGGAGCACCUUUUGGUCCUUCUCUUCAGAGACCUGGUCAGGGACUCCCCAGCCUGCCCCCCAACACAAGUCCCUUCCCUGGUCCAGACCCUGGUUUUCCUGGCCCUGGCGGUGAG | 0.226 |
| UUGUAGUCCUAAAAAGAUUUUUUUUUUUUAAAAUAAAGUCCAUCCUUGCAUUUAGGUUUUAUAGAUCAGUCUUUUUAUUCCCACCCCUCCCCCAGUCGCAUUGAUCCCUAAUGGUGUGCU | 3.7 |
| CCUGAGCUAAAAUACCCAAAAGGAGCUGGGAGAGUUGCGUUCUCUAAUCAACAGAGUUACAUAGCUGCUAUCAGUGCCCGCUUUGUUCAGCUGCAGCAUGGAGAGAUAGAUAAACGGGUG | 0.295 |

Further values, each from its own experiment
| SMILES | target | effect on | tested at | quantity | result |
| --- | --- | --- | --- | --- | --- |
| C[C@@H]1C[C@H]2[C@@H]3CCC4=CC(=O)C=C[C@]4(C)[C@@]3(F)[C@@H](O)C[C@]2(C)[C@@]1(O)C(=O)CO | Replicase polyprotein 1ab, nsp12 with nsp7/nsp8 (rep, Severe acute respiratory syndrome coronavirus 2, UniProt P0DTD1) | enzyme activity | 20 µM | inhibition | 18% |

Some of these lines once more (sample 4):
| Sequence | bound/input enrichment [ratio] |
| --- | --- |
| CAACCAGGAGCACCUUUUGGUCCUUCUCUUCAGAGACCUGGUCAGGGACUCCCCAGCCUGCCCCCCAACACAAGUCCCUUCCCUGGUCCAGACCCUGGUUUUCCUGGCCCUGGCGGUGAG | 0.226 |
| AGCACCUGUCCACAUGGUGAGCCCGGUGCUCCCCAACCACCCCCGCCAUGAGGACCAAUGACUAGCCAGUGUAGAAUAAGUUUGGCCAGAUAAGGAGAUGGCACUGCCAAGUGAUACAUG | 0.491 |
